{"data": "Measured values pooled from the literature", "note": "Each numbered part is a random draw from the data of one study; scales do not carry over between parts. Positions count from the first letter of the parent shown.", "chain of UniProt Q96RR4 (whole entry, looked up)": "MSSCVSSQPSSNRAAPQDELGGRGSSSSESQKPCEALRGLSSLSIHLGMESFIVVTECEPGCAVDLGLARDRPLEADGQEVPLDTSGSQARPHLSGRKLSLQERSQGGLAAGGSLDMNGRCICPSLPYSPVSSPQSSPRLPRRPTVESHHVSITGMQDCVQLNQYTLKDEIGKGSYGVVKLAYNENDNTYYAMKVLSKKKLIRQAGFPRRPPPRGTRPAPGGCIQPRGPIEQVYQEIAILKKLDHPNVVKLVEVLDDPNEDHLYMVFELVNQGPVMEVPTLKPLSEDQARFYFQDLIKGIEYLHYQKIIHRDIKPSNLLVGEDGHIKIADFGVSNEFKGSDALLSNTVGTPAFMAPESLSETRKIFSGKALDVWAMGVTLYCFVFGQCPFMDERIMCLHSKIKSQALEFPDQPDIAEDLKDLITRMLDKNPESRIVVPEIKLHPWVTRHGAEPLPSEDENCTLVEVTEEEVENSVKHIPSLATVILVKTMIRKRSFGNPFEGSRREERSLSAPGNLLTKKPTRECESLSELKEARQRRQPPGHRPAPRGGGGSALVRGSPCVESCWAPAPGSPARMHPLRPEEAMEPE"}
{"data": "Series 1", "target": "RNA binding protein fox-1 homolog 2, RRM domain, GST-SBP tag (RBFOX2, Homo sapiens, UniProt O43251-10, residues 100-194)", "method": "RNA Bind-n-Seq", "molecule type": "RNA", "sample": "in vitro", "tested at": "365 nM", "setting": "natural RNA segment, single round, ends assumed", "reference": "no-protein control", "reading": "higher = stronger binding", "constant ends, left off below": "GGGAGUUCUACAGUCCGACGAUC … UGGAAUUCUCGGGUGCCAA", "Residues (chain)": "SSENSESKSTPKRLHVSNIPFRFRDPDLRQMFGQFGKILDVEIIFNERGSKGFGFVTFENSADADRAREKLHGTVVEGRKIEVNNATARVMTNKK"}
{"Oligonucleotide": "GCCUUUGCUUCAAAUGGUUUGAGUCACCAACAGACUUGUUUGGGAGUGGCCUCAGUAAAUGACAGAAAAACUGACAGGCUCAGUUUUGGAAGACAGCAAACUGGUAAGGU", "RBNS enrichment (R)": 0.415}
{"Oligonucleotide": "AGAUUAUUCAAUAAUUGAGAAACUUUAUGUGUAAUCAUGAGAGUAUAAGAAUCUGGAUUAUCUAACAUUGUUAGCCCUGUGUAUGUACAGUUCAAAAAGUUCAUUUAUAA", "RBNS enrichment (R)": 0.545}
{"Oligonucleotide": "GGAGUCUGCCACUUGUCAAAGAAGGUGCUGAUCCUAAGAAUUUUUCAUUCUCAGAAUUCGGUGUGCUGCCAACUUGAUGUUCCACCUGCCACAAACCACCAGGACUGAAA", "RBNS enrichment (R)": 0.328}
{"Oligonucleotide": "GGCACUUAACCACACCCUGGUUUUGUGUAGCCGCCAGCUCUCUUCUGGUUGGGCCUUUGAAAGGCUCAGCCUCCCAUUGUGCAGUGCUUGGGUUUGGAGCUUAUUUGAAU", "RBNS enrichment (R)": 0.348}
{"Oligonucleotide": "GGUAAAGGGUGACCUUUUGUUUUUAUAUCUAAUUUCUCAAUUUCUUUAUAUGCAUUUUUAGAAUAAUUUGAGAGAUUAAAUGCUGCUUGAAACUAUUAUACUUUGAGUUU", "RBNS enrichment (R)": 6.25}
{"Oligonucleotide": "CAGGACAGCAACUUCAGGGAUCUGUAAAGAUCAUUUAAAUGGAGUGCUCAUCUCAUUGAGGAGCAGAUUAAUUUUGGGUAAUAAGUGUGAUCAUUGUUGAACUUCAGCUC", "RBNS enrichment (R)": 0.349}
{"Oligonucleotide": "UUAGCCCUCUGGUUUUCCAGCUCAACCUCUGAUAAAGUGGACUGAGAGCCACGCUGCUCAGUCUGUUUCGUCAGCCGACUCAGGUUAUUUUCAGGGAAGGCAUGGAGGCA", "RBNS enrichment (R)": 0.665}
{"Oligonucleotide": "AGCCAGUAAGAAAGUGACAGAAGCAAUGAAUGUCUUAAUGCAGUAUAGUUAAAAUGGCUUCCCACAGGGUAGAUAAUUAUCCAGGAUCCUUCCUUUUCCUUCUUCCUCCA", "RBNS enrichment (R)": 1.01}
{"data": "Series 2", "target": "CREB3, bZIP domain (human)", "method": "DHFR protein complementation", "sample": "yeast", "setting": "single substitutions, most at no-binding floor", "reference": "wild-type JUN-FOS pair", "reading": "higher = stronger binding", "starting sequence": "JUN, bZIP domain (human); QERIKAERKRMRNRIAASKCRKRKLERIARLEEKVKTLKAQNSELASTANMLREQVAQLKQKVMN; partner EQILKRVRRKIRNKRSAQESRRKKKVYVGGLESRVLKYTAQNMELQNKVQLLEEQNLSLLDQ"}
{"Variant": "A40E", "binding fitness": "-1.34 natural log"}
{"Variant": "E33L", "binding fitness": "-1.48 natural log"}
{"Variant": "V35W", "binding fitness": "-1.44 natural log"}
{"Variant": "A49G", "binding fitness": "-1.43 natural log"}
{"Variant": "A57S", "binding fitness": "-1.5 natural log"}
{"Variant": "L45Q", "binding fitness": "-1.51 natural log"}
{"Variant": "L31P", "binding fitness": "-1.54 natural log"}
{"Variant": "Q41V", "binding fitness": "-1.5 natural log"}
{"data": "Mixed results"}
{"Substance": "PSMC2 (Homo sapiens, UniProt P35998)", "tested on": "ECPAS (Homo sapiens, UniProt Q5VYK3)", "assay": "cross-linking MS", "system": "cell fractions", "conditions": "added: DSSO", "measurement": "cross-linked residues", "value": "K407 to K852"}
{"Substance": "FC(F)(F)c1ccc(/C=C/c2nc(COc3ccc(CCCCn4ccnn4)cc3)co2)cc1", "tested on": "Calcium/calmodulin-dependent protein kinase kinase 2 (CAMKK2, Homo sapiens, UniProt Q96RR4)", "assay": "enzyme activity, inhibitor", "conditions": "0.5 µM", "scale": "reference: control", "measurement": "remaining activity", "value": "101%"}
{"Substance": "HSPD1 (Homo sapiens, UniProt P10809)", "tested on": "MDH2 (Homo sapiens, UniProt P40926)", "assay": "cross-linking MS", "system": "cell fractions", "conditions": "added: DSSO", "measurement": "cross-linked residues", "value": "K156 to K307"}
{"Substance": "BRMS1L (Homo sapiens, UniProt Q5PSV4)", "tested on": "SIN3A (Homo sapiens, UniProt Q96ST3)", "assay": "cross-linking MS", "conditions": "hits only", "measurement": "interaction screen", "value": "cross-linked"}
{"Substance": "EMC8 (Homo sapiens, UniProt O43402)", "tested on": "EMC2 (Homo sapiens, UniProt Q15006)", "assay": "cross-linking MS", "system": "cell fractions", "conditions": "added: DSSO", "measurement": "cross-linked residues", "value": "K100 to K136"}
{"note": "Some of these lines once more (series 2):"}
{"Variant": "E33L", "binding fitness": "-1.48 natural log"}
